Measured values of several laboratories.
Parts stem from different laboratories: compare values within a part only.

Sample 1
Target: Fragile X messenger ribonucleoprotein 1, C-terminal low-complexity region (Fmr1, Mus musculus, UniProt P35922)
Technique: RNA Bind-n-Seq
Molecule type: RNA
Matrix: in vitro
Concentration: 200 nM
Setting: whole 134-nt RNA, ends assumed
Added: 150 mM KCl
Baseline: input library
Reading: higher = stronger binding
`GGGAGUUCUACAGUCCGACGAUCCAAGUCCUGUGCUACACAUCGUAUGUACCGAAUCGGGGCCCGGGCCCGGGCCCGGGAAAGUAUUAUGUUACGCCGUUCGGAUCUGCACUUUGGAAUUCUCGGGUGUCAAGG` gave a log2 enrichment of -0.745.
`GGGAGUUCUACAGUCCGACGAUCUUAAGACAGUCAUUUUAAAAUGGUGGCUGAAUUUCCCAACCCACCCCCAAACUAAACACUAAGUUUAAUUUUCAGCUCCUCUGUUGGACAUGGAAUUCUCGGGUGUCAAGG` has a log2 enrichment of 0.028.
With `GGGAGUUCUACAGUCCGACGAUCCACAGACAACACGCACCCACACAGACACAGAGGGAAGGGGUUGGGAUGGGGACAGGGUGCACAGCAGGGCGGGGUAGGACCCCAGCCCCUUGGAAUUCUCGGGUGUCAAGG` the log2 enrichment was 1.25.
With `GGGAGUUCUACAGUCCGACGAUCAAGUCCUGUGCUACACAUCGUAUGUACCGAAUCGGUUUUGGGGUUUUGGGUUUUGGAAAGUAUUAUGUUACGCCGUUCGGAUCUGCACUUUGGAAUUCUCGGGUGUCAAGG` the log2 enrichment was -0.366.
`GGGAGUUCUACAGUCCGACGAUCGUCCUGUGCUACACAUCGUAUGUACCGAAUCGGGAGGGAAAAAAAGGGUUUUUUUGGGAAAGUAUUAUGUUACGCCGUUCGGAUCUGCACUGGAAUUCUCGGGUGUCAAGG` gave a log2 enrichment of -0.18.
For `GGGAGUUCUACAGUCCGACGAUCCUGUGCUACACAUCGUAUGUACCGAAUCGGGUUUUUUUGGGAAAAAAAGGGAAAAAAAGGGAAAGUAUUAUGUUACGCCGUUCGGAUCUGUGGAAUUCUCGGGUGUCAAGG`, the log2 enrichment was -1.59.
The log2 enrichment of `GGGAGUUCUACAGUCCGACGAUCGCAGGAAGUAAAAACAAAUGGAAAUGCUUCGGAUAGUGGCAGGGGUGGGGGUUGCUAAGGAAAGGGUGGGAUGGAAAUGGGUAAAGAGUUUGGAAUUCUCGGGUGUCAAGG` is reported as 0.483.
`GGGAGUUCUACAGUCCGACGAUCCAAGUCCUGUGCUACACAUCGUAUGUACCGAAUCGGGGAGGGGUUUGGGGUGGGGAAAGUAUUAUGUUACGCCGUUCGGAUCUGCACUUCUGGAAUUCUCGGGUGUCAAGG` gave a log2 enrichment of 1.58.
For `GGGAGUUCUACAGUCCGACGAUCGCAGGAAGUAAAAACAAAUGGAAAUGCUUCGGAUAGUGGCAGGGGUGGGGGUUGCUAAGGAAAGGGUGGGAUGGGAGUGGGUAAAGAGUAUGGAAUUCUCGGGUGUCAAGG`, the log2 enrichment was 0.585.
`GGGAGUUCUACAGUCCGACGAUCUCAAGUCCUGUGCUACACAUCGUAUGUACCGAAUCGGUUUUUGGUGGAAAAAGGAAAGUAUUAUGUUACGCCGUUCGGAUCUGCACUUCCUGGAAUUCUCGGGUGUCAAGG` gave a log2 enrichment of -0.39.

Sample 2
Target: RNA binding protein fox-1 homolog 2, RRM domain, GST-SBP tag (RBFOX2, Homo sapiens, UniProt O43251-10, residues 100-194)
Technique: RNA Bind-n-Seq
Molecule type: RNA
Matrix: in vitro
Concentration: 365 nM
Setting: natural RNA segment, single round, ends assumed
Baseline: no-protein control
Reading: higher = stronger binding
For `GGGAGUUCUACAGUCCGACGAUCCCCAUUUAAACAGGAGUCCUCUUCAACUUCAGCUGAUUACAAUAACAAAAGGCGGAAUUGAAUUGUGCGAUGCCAACGGCCUUCUCAUUUACAGGUUUUUUUCCCCCACAUGGAAUUCUCGGGUGCCAA`, “RBNS enrichment (R)” read 0.564.
For `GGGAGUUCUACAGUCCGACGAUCCACGAAGGGCAUCCGCAAUGUUGGUUUCACUGAGAGCUGCCUCCUGGUCUCUUCACCACUGUAGUUCUCUCAUUUCCAAACCAUCAGCUGCUUUUAAAAUAAGAUCUCUUUGGAAUUCUCGGGUGCCAA`, “RBNS enrichment (R)” read 0.42.
Under “RBNS enrichment (R)”, `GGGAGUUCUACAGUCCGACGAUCUGUUGAUCGGUGCUUUCUGUAAAUACAUCUUAUCGCUUGGGUUGAGAGGGGCCUUAAGAAGGACAGUUCAUUGUAGGAAAGCAAUUCUGUACAUGAGUUAAGCAUACUUGUGGAAUUCUCGGGUGCCAA` is recorded as 0.445.
`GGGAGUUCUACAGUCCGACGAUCCAGAGGCACCUUACUCUCUGGGGCAUUAUCAGAUUUUAAUAAAUGAAUAAAUAAAUGGUAUUUUUUUUAAAUGUCAGCUCUUCCAUAAUUCAGUCUAGAUAGGAGAUUAUUGGAAUUCUCGGGUGCCAA`: “RBNS enrichment (R)” 0.431.
`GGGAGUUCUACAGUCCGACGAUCAGCUGGGUGUUUUCAAAUUUUCUUGAAAAGUGAGUUGUGUCACAGAAUGUGGAUAGUGAGAUUUGCUUCUGGGCCUGUGGUUGGACGCCCACAGCUUCCUUUGGAGGGGCUGGAAUUCUCGGGUGCCAA`: “RBNS enrichment (R)” 2.53.
`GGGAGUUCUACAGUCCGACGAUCUGUUAAAUAUGCACUGACCUCAGAAAGUCGAGUUCAAAAGGGAGAUAAAAUUGCCAAAGUGAUCCAAGGAUUGUGCAUGUUGGGAAACCCAUAUGAGAGAAAGGAUUCUCUGGAAUUCUCGGGUGCCAA`: “RBNS enrichment (R)” 7.5.
For `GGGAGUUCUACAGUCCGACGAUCAAGCCAUAGCCAGAAAGGACAGAAUCUCUCCCCCACUCCCUUGCCCCAUAACCAAACAUAAGCUAGCUAGUCUUGUCUAAUAGAUGGGAUUUACUAUAGGUGAAGAUAGCUGGAAUUCUCGGGUGCCAA`, “RBNS enrichment (R)” read 0.481.
For `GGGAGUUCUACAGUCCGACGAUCUCGGGCCAGACCGAUGUGGAUCACCCGCUGUGUGAGGAAUGCACAGACACUCUUUUAGACCAGCUGGACACUCAGCUCAAUGUCACUGAGAAUGAAUGUCAGAACUACAGUGGAAUUCUCGGGUGCCAA`, “RBNS enrichment (R)” read 1.52.
Under “RBNS enrichment (R)”, `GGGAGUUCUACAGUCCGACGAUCCUCUAGGGAAGGUUUGUGCUGGCCUCAGGAGACUGUCUCAUGAGCAGGGAAGUGUUGUGGCCGGCUGGACUGUGCCUGCUUUAGAGUAGACAGAGAGGGACGUGGGCAUGUGGAAUUCUCGGGUGCCAA` is recorded as 0.549.
For `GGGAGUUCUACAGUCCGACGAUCCAAUACUGAGAUUGCAAAACUGAAGCUUGACAAGUGUGUGGAAGACCCUGGCUCAAGUUCCAGCACUGGAAAGACCAAAGUGCAAACGUGCAUGGGAGGAGUGAGGGUAAUGGAAUUCUCGGGUGCCAA`, “RBNS enrichment (R)” read 5.6.
For `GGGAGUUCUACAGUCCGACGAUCGAAACAGAUCACUGAAAUUCAAAGAAAAUGUCUCUUAAGGUUCAUGUUUGUGGGAUUUUUUUUGGGGGGGGGGGAGGUGAUUUUCCAGAACCUAAUGAAAGGACCACGUUUGGAAUUCUCGGGUGCCAA`, “RBNS enrichment (R)” read 0.918.
Under “RBNS enrichment (R)”, `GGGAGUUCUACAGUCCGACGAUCCUCGCCUCUGCAGUGAUGCUGCCUACACCUCCACCUCCUUCCCCUUCUCCCUCAGGCAACCCCGACAGACAGUGGCACUCCUGGUCCUGCUGUCUUGGUUUUGUCUUGGCUGGAAUUCUCGGGUGCCAA` is recorded as 0.511.

Sample 3
Target: Histone acetyltransferase KAT6A, winged helix 1, GST fusion (KAT6A, Homo sapiens, UniProt Q92794, residues 1-85)
Technique: protein binding microarray
Molecule type: double-stranded DNA, one strand shown
Matrix: in vitro
Concentration: not given
Setting: 8-mer, flanks averaged, mean of 2 arrays, mostly near background
Baseline: not given
Reading: higher = stronger binding
Residues (chain): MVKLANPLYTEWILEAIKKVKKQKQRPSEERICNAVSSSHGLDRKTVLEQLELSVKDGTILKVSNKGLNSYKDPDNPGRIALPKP
`GGCTTCAA` gave an E-score of 0.0195.
`GCGTCACC` has an E-score of 0.162.
`CAGAGCGA` gave an E-score of -0.105.
`GGTCCCAA` has an E-score of -0.173.
With `TTTCCAAA` the E-score was -0.263.
The E-score of `CACTCTAC` is reported as -0.187.
With `CGCTATGC` the E-score was 0.317.
With `AGCCCACT` the E-score was -0.186.
With `CGGCACAG` the E-score was 0.261.
With `AAGTGCTC` the E-score was -0.163.
`CAACCTCA` gave an E-score of -0.246.
`AATTACGC` gave an E-score of 0.0757.
With `GAGTGGGA` the E-score was -0.136.
`AGAACATA` gave an E-score of 0.0109.
With `TAAAGCCA` the E-score was -0.2.
`CCGAGCTA` has an E-score of 0.22.

Sample 4
Target: Interferon regulatory factor 7, full length, phosphomimetic (IRF7, Homo sapiens, UniProt Q92985, residues 1-503, S471D/S472D/S475D/S476D/S477D/S483D/S484D/S487D)
Technique: protein-binding microarray
Molecule type: double-stranded DNA, one strand shown
Matrix: in vitro
Concentration: 2200 nM top
Setting: 60-bp whole probe
Added: salmon DNA 0.4 mg/ml
Baseline: random background probes
Reading: higher = stronger binding
Shared flanks, not repeated: GCCTAGCAC … GTCTTGATTCGCTTGACGCTGCTG
Construct (chain): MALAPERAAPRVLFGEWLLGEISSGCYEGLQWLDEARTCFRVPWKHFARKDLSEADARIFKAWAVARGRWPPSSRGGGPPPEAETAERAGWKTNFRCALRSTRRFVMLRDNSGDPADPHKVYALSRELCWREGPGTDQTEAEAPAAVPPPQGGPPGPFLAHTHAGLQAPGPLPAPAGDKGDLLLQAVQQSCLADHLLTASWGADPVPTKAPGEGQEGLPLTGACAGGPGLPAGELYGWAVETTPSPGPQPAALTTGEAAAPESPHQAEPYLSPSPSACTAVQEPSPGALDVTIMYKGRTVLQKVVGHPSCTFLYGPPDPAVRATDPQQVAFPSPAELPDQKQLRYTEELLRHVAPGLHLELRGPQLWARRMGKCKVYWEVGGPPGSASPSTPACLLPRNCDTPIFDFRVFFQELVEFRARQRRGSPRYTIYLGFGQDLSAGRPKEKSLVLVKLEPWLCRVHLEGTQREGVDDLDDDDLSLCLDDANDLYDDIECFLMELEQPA
`GACTATCTCAGTATCGAGACGTGCTAG`: “fitted relative affinity” 0.496 z-score.
`GACGATATCGTGTTTCGAGACGTGCTA`: “fitted relative affinity” 1.93 z-score.
Under “fitted relative affinity”, `GACGATCGCAGTCTCGAGACGTGCTAG` is recorded as 0.28 z-score.
`TTCGGTATCCTACTGCTTTAGTGCTAG` — result for “fitted relative affinity”: 1.65 z-score.
`TCACGGCTCTAAACTCATACTGTGCTA`: “fitted relative affinity” -0.0693 z-score.
`TTAGGAGTGGGGTATCGGTTAGTGCTA` — result for “fitted relative affinity”: -0.202 z-score.
`GACGGACTGAGGTTTCGGGACGTGCTA`: “fitted relative affinity” 1.17 z-score.
For `CAGCCGCACAGCATGAGTTCGTGCTAG`, “fitted relative affinity” read -0.681 z-score.
Under “fitted relative affinity”, `TATGTTCCTTATTTAAGACCGTGCTAG` is recorded as 1.37 z-score.
Under “fitted relative affinity”, `TTAGAACGGAGTTTCGATTAGTGCTAG` is recorded as 3.57 z-score.
For `CACGATTTCAGACTGGAGACGTGCTAG`, “fitted relative affinity” read 0.778 z-score.
For `TTAGAACTGGACTTTCGGTTAGTGCTA`, “fitted relative affinity” read 4.99 z-score.
`GACGAACTGAGACTGGTGACGTGCTAG`: “fitted relative affinity” -0.256 z-score.
For `GACGCTTTCAGTTTCGAGACGTGCTAG`, “fitted relative affinity” read 8.06 z-score.
`TTAGCTATCGGGTATCGATTAGTGCTA`: “fitted relative affinity” 0.19 z-score.
Under “fitted relative affinity”, `GACGATTCCAGTTTCAAGACGTGCTAG` is recorded as 1.26 z-score.
Under “fitted relative affinity”, `TTAGAAATCAGTATCGATTAGTGCTAG` is recorded as -0.502 z-score.
`GACGGACTGCTACTGCTTACGTGCTAG`: “fitted relative affinity” -0.0516 z-score.
`TTATGTTTCGACTATCGGTTAGTGCTA`: “fitted relative affinity” 3.68 z-score.
`TTCTGAATGCCCTCTAACTTCGTGCTA`: “fitted relative affinity” 0.547 z-score.
Under “fitted relative affinity”, `ATAGGTTTCTATATTTGCTTGTGCTAG` is recorded as 1.79 z-score.

Excerpt of the above (sample 1):
For `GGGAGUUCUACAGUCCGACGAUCCUGUGCUACACAUCGUAUGUACCGAAUCGGGUUUUUUUGGGAAAAAAAGGGAAAAAAAGGGAAAGUAUUAUGUUACGCCGUUCGGAUCUGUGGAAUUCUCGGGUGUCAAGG`, the log2 enrichment was -1.59.
The log2 enrichment of `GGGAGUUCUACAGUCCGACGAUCGCAGGAAGUAAAAACAAAUGGAAAUGCUUCGGAUAGUGGCAGGGGUGGGGGUUGCUAAGGAAAGGGUGGGAUGGAAAUGGGUAAAGAGUUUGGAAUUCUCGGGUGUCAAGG` is reported as 0.483.
`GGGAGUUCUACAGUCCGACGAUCCAAGUCCUGUGCUACACAUCGUAUGUACCGAAUCGGGGAGGGGUUUGGGGUGGGGAAAGUAUUAUGUUACGCCGUUCGGAUCUGCACUUCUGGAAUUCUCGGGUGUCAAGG` gave a log2 enrichment of 1.58.
For `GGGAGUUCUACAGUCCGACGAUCGCAGGAAGUAAAAACAAAUGGAAAUGCUUCGGAUAGUGGCAGGGGUGGGGGUUGCUAAGGAAAGGGUGGGAUGGGAGUGGGUAAAGAGUAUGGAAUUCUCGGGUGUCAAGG`, the log2 enrichment was 0.585.
